# Assay results from different studies.
# Each line is one published result; not all experiments were run side by side. “And” joins repeats or separate records; there may be more than shown. Numbers after ± are the reported error.
SMILES,target or system,test,system,conditions,how to read,endpoint,value
C=C[C@]1(C)C[C@@H](OC(=O)CSc2ccc(NC(=O)c3ccco3)cc2)[C@]2(C)[C@H](C)CC[C@]3(CCC(=O)[C@H]32)[C@@H](C)[C@@H]1O,,,"Mycoplasma gallisepticum-infected chickens, plasma","intramuscular, 80 mg/kg, 0.25 h",,plasma concentration,6.38 µg/mL and 6.8 µg/mL and 10.2 µg/mL and 8.64 µg/mL and 6.58 µg/mL and 6.45 µg/mL and 6.42 µg/mL and 9.12 µg/mL
CN(Cc1ccccc1)C(=O)CN1CCN(CC(=O)[O-])CCN(Cc2cccc(C(=O)[O-])n2)CC1.[177Lu+3],,,"mouse, stomach","intravenous, 1 h",,tracer uptake,0.73 %ID/g
Nc1ncc(-c2cc(-c3cnn(CC(F)(F)F)c3)ncc2F)nc1C(=O)NC1CNCC(F)C1 (stereo not shown),GRK1,KINOMEscan,,1 µM,relative to: DMSO control,remaining binding,66%
O=C([O-])CN1CCN(CC(=O)[O-])CCN(Cc2cccc(C(=O)[O-])n2)CC1.[177Lu+3],,,"BALB/c mouse, urine","intravenous, 1 h",,uptake,837 ± 218 %ID/g
C/C(N)=N/C(=N\S(=O)(=O)c1ccc(C(F)(F)F)cc1)N1C[C@H](c2ccccc2)C(c2ccc(Cl)cc2)=N1,,,"cynomolgus monkey female, plasma","oral, 6 mg/kg",,oral bioavailability,41%
Cc1ncsc1-c1ccc(C(C)NC(=O)C2CC(O)CN2C(=O)C(NC(=O)CCCCCCCCCCN2CCCC(Nc3ncc(Cl)c(Nc4ccccc4S(=O)(=O)C(C)C)n3)C2)C(C)(C)C)cc1 (stereo not shown),22Rv1,"RNA-seq, measured: ZBTB42 mRNA",,concentration not given,relative to: DMSO,log2 fold change,-2.24
COC1CN([C@H]2CC[C@H]([C@@]3(C)Oc4c(Cl)cc(C(=O)NCc5c(SC)cc(C)[nH]c5=O)c(C)c4O3)CC2)C1,,"RNA-seq, measured: CREG2 mouse homolog","mouse, HT-1376 xenograft, whole blood",dose not given,relative to: vehicle,log2 fold change,1.27
C[N+](C)(CCOCCOCCOCCOCCOCCOCCOCCNC(=S)Nc1ccc(CC2CN(CC(=O)[O-])CCN(CC(=O)[O-])CCN2CC(=O)[O-])cc1)C[c-]1cccc1.[64Cu+2].[Fe+2].c1cc[cH-]c1 (stereo not shown),,,"nude mice, BxPC-3 xenograft","8 h, radioligand only, no pretargeting",,large intestine uptake,1.8 ± 1.4 %ID/g
CC[C@H](C)/C=C/C=C/C=C/C(O)=C/C(=O)C(Cl)(Cl)Cl,,,"C57BL/6 mice, female, plasma","oral, 25 mg/kg",,MRT,5.7 h
CC[C@H](C)[C@@H]1NC(=O)[C@H](Cc2ccc(O)cc2)NC(=O)CCCSC[C@@H](C(=O)N(CC(=O)N[C@@H](CC(C)C)C(=O)NCC(N)=O)Cc2ccc(F)cc2)NC(=O)[C@H](CC(N)=O)NC(=O)[C@H](CCC(N)=O)NC1=O,,,"healthy human, plasma","intranasal, 400 µg every 3 h, after last dose",,Cmax,0.211 ng/mL
Cc1nn(-c2nc3c(F)cc(F)cc3s2)c(O)c1C(c1ccc(C(F)(F)F)cc1)c1c(C)nn(-c2nc3c(F)cc(F)cc3s2)c1O,,,"ICR mouse, plasma","oral, 50 mg/kg",,CL/F observed,130 mL/h/kg and 141 mL/h/kg
C=C(NC(=O)c1csc(-c2nc3c(cc2O)-c2nc(cs2)C(=O)NC(C(C)O)C(=O)NC(=C(C)OC)c2nc(cs2)C(=O)NC2c4nc(cs4)C(=O)NC(COC(=O)c4c5c6c(cccc6n4O)COC(=O)C(OC4CC(C)(O)C(N(C)C)C(C)O4)C2OC5)c2nc-3cs2)n1)C(N)=O (stereo not shown),,,"female cynomolgus monkey, plasma","intravenous, 9 mg/kg, single dose, infusion",,AUC(0-inf),42600 ng·h/mL
CC(C)OCCOCc1ccc(OCC(O)CN(N=O)C(C)C)cc1 (stereo not shown),Salmonella typhimurium,Ames test,TA1535,"5 µg/plate, without metabolic activation",relative to: solvent control,revertant fold increase,0.6 fold
CC[C@H](C)[C@H](NC(=O)[C@@H](NC(=O)[C@H](CCCCN)NC(=O)[C@@H](NC(=O)[C@@H]1CCCN1[C@@H]1CN(C(=O)[C@@H](NC(=O)[C@@H](NC(=O)[C@@H](NC(=O)[C@@H](NC(=O)[C@@H](NC(=O)[C@@H](N)CCCCN)C(C)C)C(C)C)C(C)C)[C@@H](C)CC)[C@@H](C)O)CC[C@H]1NS(=O)(=O)c1ccc(C)cc1)[C@@H](C)O)C(C)C)C(=O)N[C@@H](CC(C)C)C(=O)N[C@@H](Cc1c[nH]cn1)C(N)=O,,circular dichroism,methanol,"125 µM, 20 °C",,random coil content,17%
O=C(Nc1cnccc1-c1ccc([18F])nc1)c1ccnc(NC(=O)C2CC2)c1,,ex vivo gamma counting,"GSK-3β transgenic mice, early-stage, brain stem","intravenous, 120 min",,mean SUV,0.024
CCN(CC)CC#CCNc1ccnc2cc(Cl)ccc12,Salmonella typhimurium,mini-Ames test,TA97a,"1000.0 µg/well, with rat liver S9",,revertants per well,11
